Experimental data from different studies.
Each numbered part is a random draw from the data of one study; scales do not carry over between parts. “And” joins repeats or separate records; there may be more than shown.
Sequence of UniProt P23458 (whole entry, looked up): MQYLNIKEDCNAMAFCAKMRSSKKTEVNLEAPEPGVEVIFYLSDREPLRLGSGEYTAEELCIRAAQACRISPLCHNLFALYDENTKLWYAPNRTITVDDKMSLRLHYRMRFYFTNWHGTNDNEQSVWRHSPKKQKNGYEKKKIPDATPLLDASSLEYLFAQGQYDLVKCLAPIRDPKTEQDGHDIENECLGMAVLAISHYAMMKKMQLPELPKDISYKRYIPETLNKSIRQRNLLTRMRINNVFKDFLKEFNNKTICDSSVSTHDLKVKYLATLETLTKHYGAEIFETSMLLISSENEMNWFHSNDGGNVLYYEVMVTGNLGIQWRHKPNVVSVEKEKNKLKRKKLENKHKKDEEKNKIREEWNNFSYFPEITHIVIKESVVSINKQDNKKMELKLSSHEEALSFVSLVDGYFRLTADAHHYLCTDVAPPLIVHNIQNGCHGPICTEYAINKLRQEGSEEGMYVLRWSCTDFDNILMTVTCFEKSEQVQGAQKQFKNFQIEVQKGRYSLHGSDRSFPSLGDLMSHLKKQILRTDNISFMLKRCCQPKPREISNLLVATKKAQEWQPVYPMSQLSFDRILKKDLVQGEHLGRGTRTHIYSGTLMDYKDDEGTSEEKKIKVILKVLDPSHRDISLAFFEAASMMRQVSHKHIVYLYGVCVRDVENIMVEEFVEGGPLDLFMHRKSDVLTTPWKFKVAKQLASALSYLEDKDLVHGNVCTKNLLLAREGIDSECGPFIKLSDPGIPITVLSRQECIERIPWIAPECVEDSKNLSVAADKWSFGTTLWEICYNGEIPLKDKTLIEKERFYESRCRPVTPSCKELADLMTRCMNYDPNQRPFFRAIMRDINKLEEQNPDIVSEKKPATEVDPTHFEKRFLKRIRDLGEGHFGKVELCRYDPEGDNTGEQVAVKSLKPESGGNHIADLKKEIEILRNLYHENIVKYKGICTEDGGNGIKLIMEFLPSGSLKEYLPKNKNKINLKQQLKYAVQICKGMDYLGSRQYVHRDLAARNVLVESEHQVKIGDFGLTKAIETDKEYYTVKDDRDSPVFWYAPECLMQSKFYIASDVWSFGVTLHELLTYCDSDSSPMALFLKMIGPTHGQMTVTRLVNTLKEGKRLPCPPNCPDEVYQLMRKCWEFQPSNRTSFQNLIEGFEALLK
Sequence of UniProt P49759 (whole entry, looked up): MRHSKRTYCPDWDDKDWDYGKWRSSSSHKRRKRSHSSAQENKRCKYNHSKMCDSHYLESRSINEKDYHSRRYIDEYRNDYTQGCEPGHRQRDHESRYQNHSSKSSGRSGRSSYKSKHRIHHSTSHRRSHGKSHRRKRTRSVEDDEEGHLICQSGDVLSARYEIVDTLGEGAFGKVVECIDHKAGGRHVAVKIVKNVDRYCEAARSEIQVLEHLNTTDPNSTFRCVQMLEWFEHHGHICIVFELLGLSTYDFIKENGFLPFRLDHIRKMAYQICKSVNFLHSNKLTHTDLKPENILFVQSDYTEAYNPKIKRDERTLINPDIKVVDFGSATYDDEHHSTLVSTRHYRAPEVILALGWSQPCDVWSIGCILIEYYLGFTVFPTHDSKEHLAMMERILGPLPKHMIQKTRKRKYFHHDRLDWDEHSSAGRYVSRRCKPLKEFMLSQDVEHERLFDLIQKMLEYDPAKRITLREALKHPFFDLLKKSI
Sequence of UniProt Q05513 (whole entry, looked up): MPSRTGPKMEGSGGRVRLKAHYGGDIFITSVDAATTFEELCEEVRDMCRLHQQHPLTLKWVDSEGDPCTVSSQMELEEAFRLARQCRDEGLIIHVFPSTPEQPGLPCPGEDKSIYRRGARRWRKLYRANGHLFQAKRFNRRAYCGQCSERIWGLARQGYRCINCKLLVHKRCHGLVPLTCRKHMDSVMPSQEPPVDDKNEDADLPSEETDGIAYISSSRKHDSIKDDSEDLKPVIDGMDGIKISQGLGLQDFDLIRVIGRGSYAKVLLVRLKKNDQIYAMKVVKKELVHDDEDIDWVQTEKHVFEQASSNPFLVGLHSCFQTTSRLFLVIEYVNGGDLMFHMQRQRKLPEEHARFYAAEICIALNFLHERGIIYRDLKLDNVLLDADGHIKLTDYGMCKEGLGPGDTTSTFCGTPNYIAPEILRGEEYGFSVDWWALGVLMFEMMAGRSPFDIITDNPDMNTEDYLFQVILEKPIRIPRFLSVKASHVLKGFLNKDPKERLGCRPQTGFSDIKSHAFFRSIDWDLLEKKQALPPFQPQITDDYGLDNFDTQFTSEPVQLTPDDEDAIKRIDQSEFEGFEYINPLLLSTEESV
Sequence of UniProt P17948 (whole entry, looked up): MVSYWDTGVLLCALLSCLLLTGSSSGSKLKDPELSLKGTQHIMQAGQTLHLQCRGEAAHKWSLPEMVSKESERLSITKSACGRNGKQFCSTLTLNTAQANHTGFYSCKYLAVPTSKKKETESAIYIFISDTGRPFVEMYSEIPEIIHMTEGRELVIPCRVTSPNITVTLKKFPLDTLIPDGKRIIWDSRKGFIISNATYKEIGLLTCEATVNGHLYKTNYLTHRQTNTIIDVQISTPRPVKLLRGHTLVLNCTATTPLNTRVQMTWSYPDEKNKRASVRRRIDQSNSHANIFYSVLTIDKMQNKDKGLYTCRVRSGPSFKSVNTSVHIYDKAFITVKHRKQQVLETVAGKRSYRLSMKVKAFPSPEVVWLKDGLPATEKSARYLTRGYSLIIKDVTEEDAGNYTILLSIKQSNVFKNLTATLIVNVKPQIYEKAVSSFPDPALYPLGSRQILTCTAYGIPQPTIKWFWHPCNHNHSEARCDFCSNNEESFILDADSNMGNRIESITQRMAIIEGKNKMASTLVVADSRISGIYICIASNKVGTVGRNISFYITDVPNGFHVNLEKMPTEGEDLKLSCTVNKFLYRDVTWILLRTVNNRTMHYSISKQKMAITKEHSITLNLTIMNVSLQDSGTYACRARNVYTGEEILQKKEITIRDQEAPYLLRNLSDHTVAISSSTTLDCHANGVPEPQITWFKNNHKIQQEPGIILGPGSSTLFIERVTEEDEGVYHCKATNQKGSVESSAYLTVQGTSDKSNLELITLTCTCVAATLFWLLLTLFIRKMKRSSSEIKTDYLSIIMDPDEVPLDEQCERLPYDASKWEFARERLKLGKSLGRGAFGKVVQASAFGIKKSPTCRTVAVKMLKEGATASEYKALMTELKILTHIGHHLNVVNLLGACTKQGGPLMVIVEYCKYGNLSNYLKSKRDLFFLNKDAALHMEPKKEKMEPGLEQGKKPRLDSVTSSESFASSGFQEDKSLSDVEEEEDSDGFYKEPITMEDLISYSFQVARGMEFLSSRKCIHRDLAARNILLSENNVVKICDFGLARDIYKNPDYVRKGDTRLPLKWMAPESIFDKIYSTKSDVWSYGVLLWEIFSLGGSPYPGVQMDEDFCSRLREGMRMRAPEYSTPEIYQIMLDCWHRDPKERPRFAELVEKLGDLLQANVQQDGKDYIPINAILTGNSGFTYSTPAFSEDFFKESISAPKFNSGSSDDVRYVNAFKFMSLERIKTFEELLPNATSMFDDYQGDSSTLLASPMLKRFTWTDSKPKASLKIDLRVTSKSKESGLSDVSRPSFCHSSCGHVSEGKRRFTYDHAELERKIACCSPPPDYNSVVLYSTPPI
Sequence of UniProt Q14012 (whole entry, looked up): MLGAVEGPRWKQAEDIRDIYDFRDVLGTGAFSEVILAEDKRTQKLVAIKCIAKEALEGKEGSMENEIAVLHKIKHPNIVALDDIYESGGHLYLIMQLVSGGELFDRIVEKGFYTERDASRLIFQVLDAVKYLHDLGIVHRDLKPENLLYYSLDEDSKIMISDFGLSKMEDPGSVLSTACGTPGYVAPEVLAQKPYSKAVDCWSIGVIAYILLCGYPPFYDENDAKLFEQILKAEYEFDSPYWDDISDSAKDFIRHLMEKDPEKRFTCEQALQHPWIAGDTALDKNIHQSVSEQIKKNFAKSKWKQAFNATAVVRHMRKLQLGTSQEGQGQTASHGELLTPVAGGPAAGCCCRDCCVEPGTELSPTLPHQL
Sequence of UniProt P49760 (whole entry, looked up): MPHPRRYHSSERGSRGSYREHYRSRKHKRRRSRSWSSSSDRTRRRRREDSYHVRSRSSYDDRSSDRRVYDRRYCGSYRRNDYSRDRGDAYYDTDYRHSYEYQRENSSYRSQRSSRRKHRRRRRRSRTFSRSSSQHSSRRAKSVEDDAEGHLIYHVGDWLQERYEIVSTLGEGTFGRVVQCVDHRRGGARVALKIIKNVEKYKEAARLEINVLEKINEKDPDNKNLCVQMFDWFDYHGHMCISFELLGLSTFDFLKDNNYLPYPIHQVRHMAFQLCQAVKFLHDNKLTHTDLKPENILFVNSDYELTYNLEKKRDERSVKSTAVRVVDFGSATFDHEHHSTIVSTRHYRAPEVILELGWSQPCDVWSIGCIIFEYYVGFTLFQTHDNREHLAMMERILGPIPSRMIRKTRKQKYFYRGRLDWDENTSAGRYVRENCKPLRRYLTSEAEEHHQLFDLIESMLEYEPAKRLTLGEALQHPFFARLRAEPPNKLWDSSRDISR
Sequence of UniProt P42680 (whole entry, looked up): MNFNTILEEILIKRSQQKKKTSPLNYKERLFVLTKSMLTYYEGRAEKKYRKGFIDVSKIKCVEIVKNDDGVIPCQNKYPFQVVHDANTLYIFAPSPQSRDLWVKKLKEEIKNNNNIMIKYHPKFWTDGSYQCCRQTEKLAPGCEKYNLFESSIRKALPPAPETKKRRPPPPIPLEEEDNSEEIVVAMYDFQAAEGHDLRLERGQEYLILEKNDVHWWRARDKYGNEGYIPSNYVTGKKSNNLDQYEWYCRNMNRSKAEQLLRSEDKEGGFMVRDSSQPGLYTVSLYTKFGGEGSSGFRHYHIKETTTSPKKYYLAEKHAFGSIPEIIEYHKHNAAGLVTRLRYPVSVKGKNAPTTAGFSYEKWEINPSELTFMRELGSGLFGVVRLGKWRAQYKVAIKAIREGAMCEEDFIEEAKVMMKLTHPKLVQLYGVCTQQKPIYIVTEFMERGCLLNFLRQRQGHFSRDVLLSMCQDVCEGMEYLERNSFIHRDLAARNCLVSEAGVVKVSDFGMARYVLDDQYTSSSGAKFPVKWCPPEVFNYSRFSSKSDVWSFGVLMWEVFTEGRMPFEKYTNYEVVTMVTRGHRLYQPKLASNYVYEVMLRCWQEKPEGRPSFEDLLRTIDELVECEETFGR

Series 1
Cell line: mouse MPNST tumor cells
Method: high-content nuclear imaging
Measured: cell number
Concentration: 10 µM
Time: 12 h
Setting: mean of 2 replicates
Relative to: plate mean
Direction: higher = more cells
| Structure (SMILES) | nuclei count |
| --- | --- |
| NS(=O)(=O)c1cc2c(cc1Cl)NC(CC1CCCC1)NS2(=O)=O (centres unmarked) | 1.71 z-score |
| COc1cc(C(=O)N(CCC2CCCN2C)C/C(C)=C/c2ccccc2F)cc(OC)c1OC (centres unmarked) | 1.8 z-score |
| CC(C(=O)O)c1ccc(C(=O)c2cccs2)cc1 (centres unmarked) | 2.01 z-score |
| Cc1cc(C(C)Nc2ccc(F)c(-c3cc(C)c(C(=O)NC4(C(=O)O)CC4)c(C)c3)c2)ccc1Cl (centres unmarked) | 3.31 z-score |
| Cc1cc(C)nc(NS(=O)(=O)c2ccc(N)cc2)n1 | 1.28 z-score |
| NC(=O)c1cnccn1 | 0.0444 z-score and 1.01 z-score |
| Cc1oc(-c2ccccc2)nc1CCOc1ccc(CC2SC(=O)NC2=O)c2sccc12 (centres unmarked) | -0.789 z-score |
| COC(=O)c1sccc1S(=O)(=O)Nc1ccc(Nc2ccccc2)cc1OC | 1.6 z-score |
| c1ccc(C(OC2CCN(CCCc3nn[nH]n3)CC2)c2ccccc2)cc1 | 1.89 z-score |
| Nc1ccn([C@@H]2O[C@H](CO)[C@@H](O)C2(F)F)c(=O)n1 | -5.21 z-score and -3.19 z-score |
| CN[C@@H]1[C@@H](O[C@H]2O[C@H](CO)[C@@H](N)[C@H](O)[C@H]2O)OC2C[C@@H](N)[C@@H](O[C@H]3[C@H](O)[C@@H](O)[C@H](N)C[C@@H]3N)OC2[C@@H]1O (some centres unmarked) | 4.7 z-score |
| c1ccc(CNCc2ccc(CN3CCCNCCNCCCNCC3)cc2)nc1 | 2.02 z-score |
| CCc1ccc(NC(=O)Nc2c[nH]c3ccccc23)cc1 | -3.86 z-score |

Series 2
Cell line: normal organoid sample H
Method: CellTiter-Glo
Species: human
Matrix: normal-adjacent epithelium
Concentration: 0.1 µM
Relative to: DMSO
| Compound | viability |
| --- | --- |
| O=C(c1ccc(F)cc1)N1CC(COc2ccc(Br)cc2)(C(=O)O)C1 | 106% and 117% |
| Cc1nc(Cc2cccc(C(F)(F)F)c2)sc1-c1ccc(C(N)=O)nc1 | 84.8% and 66.7% |
| Nc1cnc(N2CCc3cc(S(=O)(=O)Nc4c(F)cc(Cl)cc4F)cc(N4CCCC4=O)c32)nc1 | 98.5% and 89.2% |
| CC(C)CC(=O)N1CCc2nc(-c3ccc(Br)cc3)nc(N(C)Cc3ccccc3)c2C1 | 150% and 141% |
| CCOC(=O)c1cc2cc(-c3cc(C(=O)NCc4ccc(C(=O)O)cc4)nn3C)ccc2[nH]1 | 93.8% and 114% |
| O=C(Nc1ccc(-n2nc(-c3cccnc3)cc2C(F)(F)F)cn1)c1ccc(-c2ccccc2)c(F)c1 | 104% |
| CS(=O)(=O)NCC[C@H](NC(=O)c1cncc2c1cnn2-c1ccc(F)cc1)c1ccnc(S(C)(=O)=O)c1 | 99.3% and 137% |
| CCCOc1ccc([C@H]2[C@H](C(=O)O)[C@@H](c3ccc4c(c3)OCO4)CN2CC(=O)Nc2c(CC)cccc2CC)cc1 | 129% and 128% |

Series 3
Species: human
Matrix: microsomes or S9
Concentration: 2 µM
Time: 0.5 h
| Compound | remaining compound [%] |
| --- | --- |
| Cc1cc2n(CCNC(=O)COc3ccc(F)cc3)ccn2n1 | 57.7 |
| CC1(C)CC(CNCCC(c2ccc(F)cc2)c2ccco2)CCO1 (centres unmarked) | 26.1 |
| Cc1ccc(S(=O)(=O)Nc2nc(C)cc(=O)[nH]2)cc1 | 64.1 |
| Nc1ccc2nc(CCCc3nc4ccc(N)cc4s3)sc2c1 | 79 |
| O=S(=O)(Cc1ccccc1)CC(O)Cn1cccn1 (centres unmarked) | 95.2 |
| Nc1nc(N2CCc3ccccc3C2)nc2ccccc12 | 47 |
| CCC1CCCCN1Cc1ccc(CNC(=O)c2noc3c2CCc2sccc2-3)o1 (centres unmarked) | 1.3 |
| CCc1ccc(N2C=NS(=O)(=O)c3cccnc32)cc1 | 48.6 |
| O=C(c1cccs1)N1c2nc(C3CCCCC3)nn2C2(CCCCC2)[C@@H]2CCCC[C@@H]21 | 0.236 |
| CCOC(=O)C1CCN(c2nc(C)cc(Cl)n2)CC1 | 0.0185 |
| Cc1[nH]c(=O)[nH]c(=O)c1S(=O)(=O)N1CCC(C(=O)NCCC(C)C)CC1 | 78.2 |

Series 4
SMILES: Nc1nc(Nc2ccc(S(N)(=O)=O)cc2)nn1C(=O)c1c(F)cccc1F
Observed: enzyme activity
Mode: inhibitor
Concentration: 0.5 µM
Relative to: control
| target | remaining activity [%] |
| --- | --- |
| RPS6KA3 (Homo sapiens, UniProt P51812) | 38.6 |
| JAK1 (Homo sapiens, UniProt P23458) | 5.19 |
| CLK1 (Homo sapiens, UniProt P49759) | 85.1 |
| MUSK (Homo sapiens, UniProt O15146) | 83.1 |
| Cyclin-dependent kinase 2, with cyclin E (CDK2, Homo sapiens, UniProt P24941) | 7.15 |
| IGF1R (Homo sapiens, UniProt P08069) | 86.9 |
| CAMK1 (Homo sapiens, UniProt Q14012) | 90.4 |
| TYRO3 (Homo sapiens, UniProt Q06418) | 98.6 |
| CLK2 (Homo sapiens, UniProt P49760) | 71.5 |
| SGK2 (Homo sapiens, UniProt Q9HBY8) | 106 |
| TEC (Homo sapiens, UniProt P42680) | 122 |
| FLT1 (Homo sapiens, UniProt P17948) | 90.7 |
| CSNK1D (Homo sapiens, UniProt P48730) | 94.5 |
| PRKCZ (Homo sapiens, UniProt Q05513) | 99.9 |
| PAK1 (Homo sapiens, UniProt Q13153) | 89.5 |
| SIK2 (Homo sapiens, UniProt Q9H0K1) | 84.1 |
| EPHA2 (Homo sapiens, UniProt P29317) | 80.9 |
| MAP3K20 (Homo sapiens, UniProt Q9NYL2) | 100 |
